Measurements from different studies.
Several values in a cell are separate wells, animals, samples, runs or records. ± marks the error that the study gave. Values after ≈ are worked out from the molar mass of the structure shown.

For `OB(O)c1ccc(C(F)(F)F)s1`, the biofilm formation was 39.4% and 34% and 35% (Staphylococcus aureus; crystal violet; USA300 wild type; 10 µM; relative to: wild type untreated).
`CC(=O)c1c(O)c(C)c(O)c2c1OC1=CC(=O)C(=C(C)NCCCCOC3OC4OC5(C)CCC6C(C)CCC(C3C)C46OO5)C(=O)C12C` (mixture of isomers) — result for “mean survival time”: 4 days (Plasmodium berghei; ANKA GFP, NMRI mouse; oral, 4 x 3 mg/kg).
The MIC90 of `CC(C)[C@H]1NC(=O)[C@H](Cc2ccc(O)cc2)NC(=O)[C@@H](C(C)C)NC(=O)[C@@H](C)NC(=O)[C@H](CO)NC(=O)[C@@H](Cc2c(-c3ccc(-c4ccc5ccccc5c4)cc3)[nH]c3ccccc23)NC(=O)[C@@H](CO)NC1=O` is reported as > 50 µM (Candida albicans; broth dilution).
The MIC50 of `COc1ccc(C2=[N+]([O-])c3ccccc3N3CCN=C23)cc1` is reported as ≤ 0.06 µg/mL (Fusobacterium nucleatum; microbial growth).
The EC50 of `OC(c1cc(C(F)(F)F)nc2c(C(F)(F)F)cccc12)C1CCCCN1` (centres unmarked) is reported as 9.4 ± 2.6 nM (Plasmodium falciparum; parasite growth; CAM3 REV).
`CC[C@H](C)CCCCC(=O)N[C@@H](CCN)C(=O)N[C@H](C(=O)N[C@@H](CCN)C(=O)N[C@H]1CCNC(=O)[C@H]([C@@H](C)O)NC(=O)[C@H](CCN)NC(=O)[C@H](CCN)NC(=O)[C@H](CC(C)C)NC(=O)[C@@H](CC(C)C)NC(=O)[C@H](CCN)NC1=O)[C@@H](C)O` — result for “MIC fold change”: 1.63 (Escherichia coli; daily serial passaging; ATCC 8739; highest sub-MIC, 41 days; relative to: initial MIC).
`CNCCO.O=C(O)C(Cl)Cl` has a herbicidal inhibition of 0% (Xanthium sibiricum; 15 mg/mL, 21 days, post-emergence, greenhouse).
With `CCOC(=O)C1(CC#N)Oc2cc(F)ccc2N(CC#N)C1=O` (centres unmarked) the inhibition was 55.3% (Arabidopsis thaliana; root length, petri dish germination; Col-0, 1/2 MS medium; 50 µg/mL, 7 days, 22 °C, dark).
For `Fc1cccc(COc2ccc(Nc3ncnc4ccc(-c5cccc(N6CCSCC6)c5)cc34)cc2Cl)c1`, the EC50 was 780 nM (Plasmodium falciparum; parasite growth, SYBR Green fluorescence; C235 (TM91C235), drug-resistant).
`CCOC(=O)C1(Cc2ccc(C#N)cc2)Oc2cc(F)ccc2N(Cc2ccc(C#N)cc2)C1=O` (centres unmarked) gave an inhibition of 60.2% (Arabidopsis thaliana; root length, petri dish germination; Col-0, 1/2 MS medium; 200 µg/mL, 7 days, 22 °C, dark).
With `Cc1ccc(N2CC3CC(C2)N3C)cc1C(=O)NC1(c2ccc3c4c(cccc24)C(=O)N3C)CC1` the inhibition was 100% (Betacoronavirus 1; viral replication; Huh-7, OC43; 100 µM).
For `Nc1nc2ccc(Oc3cc[nH]c(=O)c3)cc2s1`, the swarming inhibition was 82.1% (Pseudomonas aeruginosa; swarming area; PA14-lux; 200 µM, 24 h; relative to: DMSO).
For `C[C@H]1[C@H](OC(=O)CCC(=O)OCc2nnn(-c3cc4ccc(O)cc4oc3=O)c2COC(=O)CCC(=O)O[C@@H]2O[C@@H]3O[C@@]4(C)CC[C@H]5[C@H](C)CC[C@@H]([C@H]2C)[C@@]35OO4)O[C@@H]2O[C@@]3(C)CC[C@H]4[C@H](C)CC[C@@H]1[C@@]24OO3`, the cure rate was 25% (Plasmodium berghei; NK65/GFP, mouse; subcutaneous, 22 µmol/kg daily for four days).
With `C[N+]1=C2C(c3ccc([N+](=O)[O-])cc3)=[N+]([O-])c3ccccc3N2CCC1` the MIC50 was 0.25 µg/mL (Fusobacterium nucleatum; microbial growth).
With `Cc1ccc2c(c1)OC(C)(C)[C@@H]1C[C@H]3CN(C(=O)[C@H](Cc4c[nH]c5ccccc45)NC(=O)OC(C)(C)C)CC[C@H]3O[C@@H]21` the IC50 was 15700 nM (HIV-1 subtype C; viral replication; 96 h).
`CCOC(=O)C1(Cc2ccc(C#N)cc2F)Oc2cc(F)ccc2N(Cc2ccc(C#N)cc2F)C1=O` (centres unmarked) has an inhibition of 19.1% (Arabidopsis thaliana; stem length, petri dish germination; Col-0, 1/2 MS medium; 50 µg/mL, 7 days, 22 °C, dark).
Under “faecal Nluc luminescence”, `CN(C(=O)c1ccn2ncc(-c3ccc(C(N)=O)cc3)c2c1)c1ccc(C#N)cn1` is recorded as 7 a.u. and 46 a.u. and 10 a.u. and 260 a.u. and 15 a.u. (Cryptosporidium parvum; UGA1 Nluc, IFN-gamma knockout C57BL/6 mice, faeces; oral, 10 mg/kg daily, 192 h post infection, treatment days 3-9; higher means more parasites).
With `O=C(c1ccc(-c2ccc3ncnc(Nc4ccc(OCc5cccc(F)c5)c(Cl)c4)c3c2)cc1)N1CCOCC1` the EC50 was 410 nM (Plasmodium falciparum; parasite growth, SYBR Green; D6; blood stage).
For `CN(C)c1nc(NCc2ccc(F)cc2)c(/N=N/c2ccc(Cl)cc2)c(N(C)C)n1`, the mortality was 90 ± 5.8% (Plutella xylostella; leaf dipping; 200 mg/L, 96 h).
For `CCCCCCCC(=O)NCCCC[C@H](NC(=O)CCCCCCC)C(=O)N[C@@H](CCCCNC(=O)CCCCCCC)C(=O)NCC(=O)NCC(=O)NCC(=O)N[C@@H](CS)C(=O)N[C@@H](CCCNC(=N)N)C(=O)N[C@@H](CCCCN)C(=O)N1CCC[C@H]1C(=O)N[C@@H](CS)C(=O)N[C@@H](CCCNC(=N)N)C(=O)N[C@@H](CCCCN)C(=O)N1CCC[C@H]1C(=O)N[C@@H](CS)C(=O)N[C@@H](CCCNC(=N)N)C(=O)N[C@@H](CCCCN)C(=O)N1CCC[C@H]1C(N)=O`, the MIC was 16 µM (≈ 36.4 µg/mL) (Candida albicans; broth microdilution; SP 3931, RPMI-1640; 48 h, 30 °C).
With `Clc1cc(Nc2ncnc3ccc(-c4cccc(N5CCOCC5)c4)cc23)ccc1OCc1ccccc1` the EC50 was 720 nM (Plasmodium falciparum; parasite growth, SYBR Green fluorescence; C235 (TM91C235), drug-resistant).
`CCOC(=O)C1(Cc2ccccc2)Oc2ccccc2N(Cc2ccccc2)C1=O` (centres unmarked) has an inhibition of 64.9% (Arabidopsis thaliana; stem length, petri dish germination; Col-0, 1/2 MS medium; 200 µg/mL, 7 days, 22 °C, dark).
For `CCCCCCCC(=O)NCCCC[C@H](NC(=O)CCCCCCC)C(=O)N[C@@H](CCCCNC(=O)CCCCCCC)C(=O)NCC(=O)NCC(=O)NCC(=O)N[C@@H](CS)C(=O)N[C@@H](CCCNC(=N)N)C(=O)N[C@@H](CCCCN)C(=O)N1CCC[C@H]1C(N)=O`, the MIC was > 128 µM (Candida albicans; broth microdilution; CGMCC 2.209, RPMI-1640; 48 h, 30 °C).
With `Cc1cc(C(=O)Nc2nc3cccc(C)c3n2[C@H]2CCCCN(C(=O)/C=C/CN(C)C)C2)ccn1` the survival was 20.3% and 25.1% and 26.6% and 28.4% (Trypanosoma brucei brucei; 2T1 CLK1 overexpressing; 5 µM, DMSO pretreated; relative to: maximum).
With `O=C1NC2(CC2)COc2ncc(F)cc2[C@H]2COCCN2c2ccn3ncc1c3n2` the organ weight was 11.1 ± 2.33 g (Sprague-Dawley rat, female, liver; oral, 20 mg/kg/day, 4 weeks).
The EC50 of `CN1CCN(S(=O)(=O)c2ccc(-c3ccc4ncnc(Nc5ccc(OCc6ccccc6)c(Cl)c5)c4c3)cc2)CC1` is reported as 51 nM (Plasmodium falciparum; parasite growth, SYBR Green fluorescence; W2, drug-resistant).
The inhibition of `CCOC(=O)C1(Cc2ccc(-c3ccccc3)cc2)Oc2cc(F)ccc2N(Cc2ccc(-c3ccccc3)cc2)C1=O` (centres unmarked) is reported as 24.2% (Arabidopsis thaliana; stem length, petri dish germination; Col-0, 1/2 MS medium; 50 µg/mL, 7 days, 22 °C, dark).
`Fc1cccc(COc2ccc(Nc3ncnc4ccc(-c5cccc(N6CCCCC6)c5)cc34)cc2Cl)c1` has an EC50 of 1100 nM (Plasmodium falciparum; parasite growth, SYBR Green fluorescence; C235 (TM91C235), drug-resistant).
Under “root length inhibition”, `C#CCN1C(=O)C(CC#C)(C(=O)OCC)Oc2ccccc21` (centres unmarked) is recorded as 100% (Arabidopsis thaliana; Col-0, seed germination, dark; 50 µg/mL, 7 days, 22 °C).
With `CCCCCCCCCCCC(=O)NCCCC[C@H](NC(=O)CCCCCCCCCCC)C(=O)N[C@@H](CCCCNC(=O)CCCCCCCCCCC)C(=O)NCC(=O)NCC(=O)NCC(=O)N[C@@H](CS)C(=O)N[C@@H](CCCNC(=N)N)C(=O)N[C@@H](CCCCN)C(=O)N1CCC[C@H]1C(=O)N[C@@H](CS)C(=O)N[C@@H](CCCNC(=N)N)C(=O)N[C@@H](CCCCN)C(=O)N1CCC[C@H]1C(N)=O` the MIC was > 128 µM (Candida albicans; broth microdilution; SP 3931, RPMI-1640; 48 h, 30 °C).
The EC50 of `O=C(c1cccc(-c2ccc3ncnc(Nc4ccc(OCc5cccc(F)c5)c(Cl)c4)c3c2)c1)N1CCOCC1` is reported as 1200 nM (Plasmodium falciparum; parasite growth, SYBR Green fluorescence; C235 (TM91C235), drug-resistant).
`CCOC(=O)C1(Cc2ccccc2F)Oc2cc(F)ccc2N(Cc2ccccc2F)C1=O` (centres unmarked) gave an inhibition of 37.7% (Arabidopsis thaliana; stem length, petri dish germination; Col-0, 1/2 MS medium; 50 µg/mL, 7 days, 22 °C, dark).
The EC50 of `CN1CCN(S(=O)(=O)c2ccc(-c3ccc4ncnc(Nc5ccccc5)c4c3)cc2)CC1` is reported as 700 nM (Plasmodium falciparum; parasite growth, SYBR Green; D6; blood stage).
For `CCCN1C(=O)C(CCC)(C(=O)OCC)Oc2cc(F)ccc21` (centres unmarked), the inhibition was 83.1% (Arabidopsis thaliana; stem length, petri dish germination; Col-0, 1/2 MS medium; 200 µg/mL, 7 days, 22 °C, dark).
For `O=S(=O)(c1ccc(-c2ccc3ncnc(Nc4ccc(OCc5cccc(F)c5)c(Cl)c4)c3c2)cc1)N1CCOCC1`, the EC50 was 200 nM (Plasmodium falciparum; parasite growth, SYBR Green; D6; blood stage).
`[O-][N+]1=C(c2ccc(Cl)cc2)C2=NCCCCN2c2ccccc21` gave an MIC90 of 0.5 µg/mL (Fusobacterium nucleatum).
For `FC(F)(F)c1cccc(CNc2nc(NC3CCN(Cc4ccccc4)CC3)c3nc[nH]c3n2)c1`, the fold change was 1.4 (Cryptococcus neoformans; mRNA level, RNA-seq, item: CNAG_02375; 48 µg/mL, 3 h; relative to: untreated).
For `CC1=C[C@@H](C)[C@H]2[C@@H]3C(=O)C(Cl)(Cl)C(=O)[C@H](C)C(=O)O[C@@H](C)/C=C/C=C\[C@@H](C)[C@@H]3C=C[C@@H]2C1`, “MIC fold change” read 16 (Staphylococcus aureus; Newman compound-resistant mutant Mt1, broth-selected; concentration not given; relative to: parent strain).

A few entries again:
`CCOC(=O)C1(Cc2ccc(C#N)cc2)Oc2cc(F)ccc2N(Cc2ccc(C#N)cc2)C1=O` (centres unmarked) gave an inhibition of 60.2% (Arabidopsis thaliana; root length, petri dish germination; Col-0, 1/2 MS medium; 200 µg/mL, 7 days, 22 °C, dark).
With `Cc1ccc(N2CC3CC(C2)N3C)cc1C(=O)NC1(c2ccc3c4c(cccc24)C(=O)N3C)CC1` the inhibition was 100% (Betacoronavirus 1; viral replication; Huh-7, OC43; 100 µM).
For `Nc1nc2ccc(Oc3cc[nH]c(=O)c3)cc2s1`, the swarming inhibition was 82.1% (Pseudomonas aeruginosa; swarming area; PA14-lux; 200 µM, 24 h; relative to: DMSO).
For `C[C@H]1[C@H](OC(=O)CCC(=O)OCc2nnn(-c3cc4ccc(O)cc4oc3=O)c2COC(=O)CCC(=O)O[C@@H]2O[C@@H]3O[C@@]4(C)CC[C@H]5[C@H](C)CC[C@@H]([C@H]2C)[C@@]35OO4)O[C@@H]2O[C@@]3(C)CC[C@H]4[C@H](C)CC[C@@H]1[C@@]24OO3`, the cure rate was 25% (Plasmodium berghei; NK65/GFP, mouse; subcutaneous, 22 µmol/kg daily for four days).
With `C[N+]1=C2C(c3ccc([N+](=O)[O-])cc3)=[N+]([O-])c3ccccc3N2CCC1` the MIC50 was 0.25 µg/mL (Fusobacterium nucleatum; microbial growth).
